Assay results gathered from unrelated publications.
Lines come from different studies, so protocols differ. Several values in a cell are separate wells, animals, samples, runs or records. ± marks the error that the study gave.
Organism: Plasmodium falciparum

CCC(c1ccccc1)c1nn2c(-c3cccs3)nnc2s1 (stereo not shown)
EC50 (parasite growth, SYBR Green; 3D7 DHODH E182D; 72 h): 0.333 ± 0.049 µM

COCC(=O)N1CCC[C@H](C(=O)NCc2nc(-c3ccccc3)cs2)C1
EC50 (Dd2 β3 R190S resistant): 2.7 ± 0.17 µM

CN(Cc1ccco1)c1ncnc2ccc(-c3ccoc3)cc12
activity (growth, SYBR green; FVO; concentration not given, 36 h): active

CC[C@H](C)[C@H](NC(=O)[C@H]([C@@H](C)CC)N(C)C(C)=O)C(=O)N[C@H](C(=O)N[C@@H](CC(C)C)C(=O)[C@@]1(C)CO1)[C@@H](C)O
EC50 (SYBR Green; Dd2; 72 h): 0.014 ± 0.0023 µM

NCCC[C@@H](CC(=O)N[C@@H]1CCNC[C@H]1C(=O)N[C@H](CC(=O)N[C@@H](CCC(=O)O)CC(=O)O)Cc1c[nH]c2ccccc12)NC(=O)C[C@H](CO)NC(=O)[C@@H]1CNCC[C@H]1N
growth inhibition (SYBR Green; FVO; concentration not given, 36 h): inactive

O=C(O)c1ccc(-n2nc(-c3ccccc3O)nc2-c2ccccc2O)cc1
IC50 (parasite growth, inhibitor, SYBR Green I; Cam3.1 R539T (MRA-1240)): > 100 µM

CC1(C(=O)O)C2CCC(O2)C1(C)C(=O)O (stereo not shown)
IC50 (Dd2): 7.94 µM

O=C(c1cc2ccccc2[nH]1)N1CC[C@]2(C1)C[C@H](Nc1ccncn1)C2
sorbitol lysis protection (PSAC-resistant lines; concentration not given; baseline: parental 3D7A): decreased

OCCN1CCN(CC/C=C2/c3ccccc3Sc3ccc(C(F)(F)F)cc32)CC1
IC50 (GB4): 2 µM

COc1ccc(-n2ccnc2SCC(=O)Nc2cc(Cl)ccc2OC)c(OC)c1
EC50 (parasite growth, SYBR Green; 3D7 wild type; 72 h): 1.02 ± 0.35 µM

O=C1C(O)=C([C@H]2CC[C@H](c3ccc(Cl)cc3)CC2)C(=O)c2ccccc21
resistance index (C2B; 96 h; baseline: C2B over 3D7): 4570

O=C(NC1CC1)c1ccc(N2CCOc3ccc(Cl)cc32)s1
EC50 (parasite growth, SYBR Green; 3D7 DHODH E182D; 72 h): 3.87 ± 0.38 µM

c1cc([C@H]2CC[C@]3(CC2)OO[C@]2(O3)C3CC4CC(C3)CC2C4)ccc1OCCN1CCOCC1
lag phase duration (human patients, malaria; oral, 200 mg): 6 h

C[C@H]1[C@@H](O)O[C@@H]2O[C@@]3(C)CC[C@H]4[C@H](C)CC[C@@H]1[C@@]24OO3
parasite survival (ring-stage survival; 5150; 700 nM, 6 h): 0.16%

CNc1ccccc1-c1cc2c(cc1CO)OCO2
activity class (parasite growth; concentration not given): inactive

CC1(C)N=C(N)N=C(N)N1c1ccc(Cl)cc1
resistance index (growth, [3H]-hypoxanthine uptake; FCR3; 72 h; baseline: FCR3 IC50 over 3D7 IC50): 150

Ic1ccc(N2CCN(Cc3c[nH]c4ncccc34)CC2)cc1
merozoite invasion (FVO, purified merozoites, erythrocytes; 50 µM): 87%

COc1cc(NC(=O)Cn2ccc3cc(F)c(-c4cnn(C)c4)cc32)cc(OC)c1OC
IC50 fold shift (recrudescent Dd2-B2, PfATP4 V178I; flask 2; baseline: Dd2-B2): 106

CC(Oc1ccc(C(=O)c2ccc(F)cc2)cc1)C(=O)N1CCc2ccccc21 (stereo not shown)
EC50 (parasite growth, SYBR Green; 3D7 wild type; 72 h): 0.193 ± 0.033 µM

Cn1cc(-c2ccc3ccn(CC(=O)Nc4ccccc4Cl)c3c2)cn1
EC50 fold shift (Dd2 PfATP4 I398F P990R D1247Y; 72 h; baseline: mutant over parental): 5 fold

Oc1ccc2c3c1O[C@H]1c4[nH]c5c(c4C[C@@]4(O)[C@@H](C2)N(CC2CC2)CC[C@]314)C[C@@]1(O)[C@H]2Cc3ccc(O)c4c3[C@@]1(CCN2CC1CC1)[C@H]5O4
activity (growth, SYBR green; FVO; concentration not given, 36 h): active

Cl.O[C@]12C=C(c3nccc4c3[nH]c3ccccc34)[C@@H]3CCN(CCCC/C=C\CC1)C[C@@]31C[C@@H]3/C=C\CCCCN3[C@H]12
selectivity index (W2, chloroquine-resistant; baseline: Vero IC50 over W2 IC50): 59

CC(C)C[C@@H](CC(=O)N[C@@H](CCCN)CC(=O)N[C@@H]1CCNC[C@H]1C(=O)N[C@H](CC(=O)N[C@@H](CCC(=O)O)CC(=O)O)Cc1ccccc1)NC(=O)[C@@H]1CNCC[C@H]1N
growth inhibition (SYBR Green; FVO; concentration not given, 36 h): inactive

O=C(Nc1cccc(CN2CCN(C(=O)c3ccccc3)CC2)c1)c1cccs1
EC50 (parasite growth, SYBR Green; 3D7 DHODH E182D; 72 h): 1.78 ± 0.33 µM

Cc1nnc(-c2ccc3ccn(CC(=O)Nc4ccccc4Cl)c3c2)o1
EC50 fold shift (Dd2 PfATP4 G358S; 72 h; baseline: mutant over parental): 3 fold

C[C@]12C=CC(=O)C=C1CC[C@@H]1C2=CC[C@]2(C)[C@@H](C(=O)CN3CCN(c4cc(N5CCCC5)nc(N5CCCC5)n4)CC3)CC[C@@H]12
IC50 (3D7): 0.631 µM

CCN(CC)CCCC(C)Nc1ccnc2cc(Cl)ccc12 (stereo not shown)
resistance index (growth, [3H]-hypoxanthine uptake; Dd2; 72 h; baseline: Dd2 IC50 over 3D7 IC50): 3.3

COc1ccc(-n2ccnc2SCC(=O)Nc2cc(C(F)(F)F)ccc2Cl)c(OC)c1
EC50 ratio (parasite growth, SYBR Green; 72 h; baseline: 3D7-E182D over 3D7): 7.6

Cc1ccc2c(c1)CC[C@@](CCN(C)CCCc1nc3ccccc3[nH]1)(OC(=O)C1CC1)[C@H]2C(C)C
IC50 (3D7): 3.16 µM

Clc1cccc(C(c2ccc3[nH]cnc3c2)n2ccnc2)c1 (stereo not shown)
merozoite invasion (FVO, purified merozoites, erythrocytes; 25 µM): 64%

CC(=O)c1c(O)c(C)c(O)c2c1OC1=CC(=O)C(=C(C)NCCCC(=O)O)C(=O)C12C (stereo not shown)
antiplasmodial activity ([3H]hypoxanthine incorporation; K1, erythrocytic stages; concentration not given): inactive

Cn1cc(C(F)(F)F)nc1-c1ccc(OCC(O)CNCCOc2ccc(O)c(C(N)=O)c2)cc1 (stereo not shown)
IC50 (7G8): 10 µM

CN(CC(=O)Nc1ccc(N(C)c2ccc(Cl)cc2)cc1)c1ccccc1N1CCCC1=O
EC50 (parasite growth, LDH; 3D7 population A; 72 h): 0.187 µM

CC(C)Cn1c(=O)n(C)c(=O)c2c(-c3cncn3C)n(Cc3cccc4ccccc34)nc21
IC50 (parasite growth, inhibitor, SYBR Green I; Cam3.1 R539T (MRA-1240)): 15.7 µM

Cn1nc2c(=O)n(C3CC3)cnc2c1[C@](O)(c1cnc(C(F)(F)F)c(Cl)c1)C(F)(F)F
average blood concentration at ED90 (Pf3D7^0087/N9, mouse, blood; dose not given, 96 h): < 0.32 µM

NC(=Nc1ccccc1)NC(=O)c1nc(Cl)c(N)nc1N
IC50 (GB4): 12.6 µM

c1csc(-c2nnc3sc(Cc4ccc5c(c4)CCCC5)nn23)c1
EC50 (parasite growth; 3D7-E182D; 72 h): > 12.5 µM

CC(C)C[C@H](NC(=O)[C@H](Cc1ccccc1)NC(=O)c1cnccn1)B(O)O
EC50 (Dd2 β3 R190S resistant): 0.06 ± 0.0095 µM

O=C(c1ccc(Cl)cc1)N1CCCC(C(=O)N(Cc2nnc(-c3ccccc3Cl)o2)C2CC2)C1 (stereo not shown)
EC50 (parasite growth; Dd2): 0.14 ± 0.018 µM

CCNC(=O)N1CCN(CCCC(c2ccc(F)cc2)c2ccc(F)cc2)CC1
IC50 (HB3): 0.794 µM

O=C(NCCN1CCCC1)c1cc(-c2ccc(CN3CCOCC3)cc2)nc2ccc(F)cc12
break point of parasite clearance (18S rRNA qPCR; human; 800 mg): 47.4 h and 53.9 h and 60 h and 62.2 h and 53.4 h and 51.3 h and 58.8 h and 55.7 h

CCOC(=O)N1CCC(=C2c3ccc(Cl)cc3CCc3cccnc32)CC1
IC50 (GB4): 10 µM

CC(C)C[C@H](NC(=O)[C@H](Cc1c[nH]c2ccccc12)NC(=O)CN1CCOCC1)C(=O)N[C@H](/C=C/S(C)(=O)=O)Cc1c[nH]c2ccccc12
EC50 (Dd2 β5 S28L CRISPR-edited; concentration not given): 0.011 ± 0.0027 µM

CCc1nnc(-c2ccc3ccn(CC(=O)Nc4cc(OC)c(OC)c(OC)c4)c3c2)o1
EC50 shift (parasite growth; Dd2 PfATP4 F156L; baseline: parental Dd2): ~2 fold

CO[C@@]12[C@H](COC(N)=O)C3=C(C(=O)C(C)=C(N)C3=O)N1C[C@@H]1N[C@@H]12
resistance index (baseline: IC50 Dd2 over IC50 3D7): 0.65

CCn1cc(-c2nc(C)no2)c(=O)c2cc(F)c(N3CCC(C)CC3)cc21
EC50 (parasite growth, [3H]hypoxanthine incorporation; Dd2; 72 h): 0.011 µM
